Results of several laboratories.
Compare with care: the assays were run in different laboratories. ± gives the spread as reported.
Cell line: HepG2

Compound | assay | conditions | IC50
COc1ccc2nc(Cl)c(-c3nc4ccccc4[nH]3)cc2c1 | cell growth or viability, MTT | 48 h | 22.4 µM
N#Cc1cccc(-c2ccc(=O)n(Cc3cccc(-c4ncc(OCC5CCN(CC(=O)N6CCN(c7ccc8c(c7)C(=O)N(C7CCC(=O)NC7=O)C8=O)CC6)CC5)cn4)c3)n2)c1 (stereo not drawn) | cell growth or viability, CCK-8 | 72 h | 0.543 µM
Cc1ccc2nc(Cl)c(-c3nc4cc(F)ccc4[nH]3)cc2c1 | cell growth or viability, MTT | 48 h | > 100 µM
CC(=O)OC[C@H]1O[C@@H](Sc2nnc(-c3cc4ccccc4[nH]3)n2-c2ccc(Cl)cc2)[C@H](OC(C)=O)[C@@H](OC(C)=O)[C@@H]1OC(C)=O | cell growth or viability, MTT |  | 21.6 µM
N#Cc1cccc(-c2ccc(=O)n(Cc3cccc(-c4ncc(OCC5CCN(CCCCCCCCC(=O)Nc6cccc7c6C(=O)N(C6CCC(=O)NC6=O)C7=O)CC5)cn4)c3)n2)c1 (stereo not drawn) | cell growth or viability, CCK-8 | 72 h | > 100 µM
C=C1C(=O)C23CCC4C(C)(C)CCCC4(C)C2C(O)CC1C3 (single isomer, unassigned) | cell growth or viability, MTT |  | 4.2 µM
O=C(NCCc1ccccc1)c1ccccc1-n1c(=O)[nH]c2ccccc2c1=O | cell growth or viability, MTT | 24 h | 14.4 µM
N#Cc1cccc(-c2ccc(=O)n(Cc3cccc(-c4ncc(OCC5CCN(CCCCCCCCCC(=O)Nc6cccc7c6C(=O)N(C6CCC(=O)NC6=O)C7=O)CC5)cn4)c3)n2)c1 (stereo not drawn) | cell growth or viability, CCK-8 | 72 h | > 100 µM
CCN1C(=O)CS/C1=N/N=C(\C)c1c(O)c2ccccc2oc1=O | cell growth or viability, MTT | 48 h | 93.8 µM
CC(=O)O[C@H]1CC[C@]2(C)[C@H]3CC=C4[C@@H]5[C@@H](C)[C@H](C)CC[C@]5(C(=O)O)CC[C@@]4(C)[C@]3(C)CC[C@H]2C1(C)C | cell growth or viability, MTT | 24 h | 71.3 µM
CS/C(=N/N=C(\C)c1ccc(S(=O)(=O)N2CCC(C)CC2)cc1)SCc1ccccc1 | cell growth or viability, MTT |  | 44.9 µM
CC(=O)[O-].O.O.O.O.[Ni+2].[O-]c1ccc(Br)cc1C=NCCN1CCOCC1 | cell viability, MTT | 72 h | 24.3 µg/mL
O=C(/C=C/c1ccc2c(c1)OCO2)/C=C/c1cn(-c2ccccc2)nc1C(=O)O | cell growth | 72 h | > 25 µM
C=C(CO)[C@@H]1CC[C@]2(C)CC[C@]3(C)[C@H](CC[C@@H]4[C@@]5(C)CCC(=O)C(C)(C)C5CC[C@]43C)C12 (stereo partly drawn) | cell growth or viability, SRB |  | 10.7 µM
CN(C)C(=NN=C(c1ccccc1)c1ccccn1)[S][Ga]([Cl])[Cl] | cell growth or viability, MTT | 48 h | 0.34 µM
C=CCc1cc(OC)c(OC(C)=O)c(OC)c1 | MTT | 24 h | > 50 µM
COc1cc([C@@H]2OC[C@@H]3[C@H]2CO[C@H]3c2cc(OC)c(O)c(OC)c2)cc(OC)c1O | cell growth or viability, CCK-8 | 24 h | > 50 µM
CSC(=S)N/N=C(\C)c1ccc(S(=O)(=O)N2CCC(C)CC2)cc1 | cell growth or viability, MTT |  | 4.82 µM
Cc1cccc2c1NC(=O)C21C2=C(COC2=O)NC2=C1C(=O)c1ccccc1C2=O (stereo not drawn) | cell growth or viability, MTT | 72 h | 6.8 µM
COc1ccc(C(=O)Cn2cc([C@]3(O)CC[C@H]4[C@@H]5CCc6cc(O)ccc6[C@H]5CC[C@@]43C)nn2)cc1 | cell growth or viability, resazurin | 72 h | 16.4 µM

Compound | assay | conditions | IC50
Oc1ccc2c(c1)[O][Pt-2]1([Cl])[N+](=C2)CC[NH+]1c1ccccc1 (stereo not drawn) | cell viability, MTT | 48 h | 77.2 ± 6.43 µM
CSc1nc(N)c2c(F)c(C#N)c(F)c(Cl)c2n1 | cell growth or viability, MTT | 96 h | 23.9 µM
CC1=CC(OC(=O)c2ccccc2)C2(COC(=O)c3ccccc3)CCC(=C(C)C)C2C(O)CC2(C)OC2CC1 (stereo not drawn) | cell growth or viability, CCK-8 | 24 h | > 50 µM
COc1cc(/C=C/C(=O)NCCCCCCNC2=C3C[C@@H](C)C[C@H](OC)[C@H](O)[C@@H](C)/C=C(\C)[C@H](OC(N)=O)[C@@H](OC)/C=C\C=C(/C)C(=O)NC(=CC2=O)C3=O)ccc1O | cell growth or viability, MTT | 72 h | 0.472 µM
COc1cc(/C=C/C(=O)/C=C/c2cn(-c3ccccc3)nc2C(=O)O)cc(OC)c1OC | cell growth | 72 h | > 25 µM
CCC1=C(CC)C2=[N+]3C1=Cc1c(CC)c(CC)c4[n]1[Ir-3]31([n+]3ccccc3)([n+]3ccccc3)[n]3c(c(CC)c(CC)c3=CC3=[N+]1C(=C4)C(CC)=C3CC)=C2.Cl | cell growth or viability, MTT | 72 h | 1.32 µM
O=C(NNc1nc(-c2ccccc2)cs1)c1cc2ccc(O)cc2oc1=O | cell growth or viability, SRB | 72 h | 2.6 µM
[Cl][Cu][Cl].c1ccc(-c2nnc(-c3ccc4c(c3)OCO4)[nH]2)nc1 | cell growth or viability, MTT | 24 h | 4.23 µM
O=C(Cc1ccccc1)NC(=S)n1c(-c2ccccc2)nc2ccccc21 | cell growth or viability, MTT | 48 h | 56.6 µM
Cc1cc(C=O)cc(C)c1Oc1cc(Nc2ccc(C#N)cc2)nc2ccncc12 |  | 48 h | > 127 µM
CCOC(=O)c1ccc(-n2c(N)c(C#N)c(SC)c(C#N)c2=O)cc1 | cell growth or viability, MTT | 24 h | 34.9 µM
C[C@@H]1O[C@@H](O[C@H]2[C@H](O[C@H]3CC[C@@]4(C)[C@@H](CC[C@]5(C)[C@@H]4CC=C4[C@@H]6CC(C)(C)CC[C@]6(C(=O)O)CC[C@]45C)[C@]3(C)CO)OC[C@H](O)[C@@H]2O)[C@H](O)[C@H](O)[C@H]1O | NF-κB activity, inhibitor, luciferase | TNF-stimulated | 0.75 µM
NC(=S)NNC(=O)c1cc2c(ccc3ccccc32)oc1=O | cell growth or viability, SRB | 72 h | 6.9 µM
COc1ccc(C(c2c[nH]c3ccc(Br)cc23)c2c[nH]c3ccc(Br)cc23)cc1 | cell growth or viability, MTT | 24 h | 4.23 µM
N#Cc1c(F)c(F)c2nc(SCc3ccccc3)nc(N)c2c1F | cell growth or viability, MTT | 96 h | 12.2 µM
Clc1nc2cc3c(cc2cc1-c1nc2ccccc2[nH]1)OCO3 | cell growth or viability, MTT | 48 h | > 100 µM
Cc1cc(CN2CCC(CCCCCCC(=O)NO)CC2)cc(C)c1-c1ncn(C)c1-c1ccc(C#N)c2ccccc12 | cell growth or viability, MTT | 72 h | 0.05 µM
COC(=O)CNC(=O)CNC(=O)CNC(=O)COc1ccc2c(C)cc(=O)oc2c1 | cell growth or viability, MTT |  | 377 µM
Cc1c(C(=O)NNC(=O)Nc2ccc([N+](=O)[O-])cc2)nnn1Cc1nc2ccccc2[nH]1 | cell viability, MTT | 48 h | 21 to 50 µM
CCn1cc(/C=C/c2sc3ccccc3[n+]2CC)c2ccccc21 | cell growth or viability, MTT | 24 h | 9.34 µM

Compound | assay | conditions | IC50
C=CC(OC(C)=O)c1cc(OC)c(OC(C)=O)c(OC)c1 (stereo not drawn) | MTT | 24 h | > 50 µM
COc1cc(/C=N/NC(=O)c2cc3cc(Nc4nccc(-c5cccnc5)n4)ccc3[nH]2)cc(OC)c1 | cell growth or viability, MTT | 48 h | 7.66 µM
O=C(CCCCCCOc1ccc(Nc2ncc(F)c(-c3cn(C4CCCCC4)nn3)n2)cc1)NO | cell growth or viability, SRB | 72 h | > 10 µM
NC(=O)c1ccc(-c2ccccc2F)c2c3c([nH]c12)CCCC3 | cell growth or viability |  | > 10 µM
CC[C@@]1(C)CC[C@H]2[C@@](C)(CC[C@@]3(C)[C@@H]4CC(C)(C)CC[C@]4(C)CC[C@]23C)[C@@H]1CCC(=O)O | cell growth or viability, SRB |  | 19.6 µM
CC(C)Cn1cc(-c2ccnc(Nc3ccc(OCCCCCCC(=O)NO)cc3)n2)nn1 | cell growth or viability, SRB | 72 h | 5.63 µM
O=C(Nc1ccccc1O)c1ccc(-c2ccc(Cl)cc2Cl)o1 | cell growth or viability, MTT |  | 6.98 µM
C=C1C(=O)[C@@]23CC[C@@H]4C(C)(C)CCC[C@@]4(CO)[C@@H]2[C@@H](O)C[C@@H]1C3 | cell growth or viability, MTT |  | 4.2 µM
COc1cc(-c2cc(=O)c3c(O)cc(OC4OC(COC5OC(C)C(O)C(O)C5O)C(O)C(O)C4O)cc3o2)ccc1O (stereo not drawn) | cell growth or viability, resazurin | 72 h | > 100 µM
N#Cc1cc(C(=O)c2ccc3ccccc3c2O)c[nH]c1=O | cell growth or viability, MTT | 48 h | 34.6 µM
CCCCSc1nc(N)c2c(F)c(C#N)c(F)c(F)c2n1 | cell growth or viability, MTT | 96 h | 34.1 µM
Cc1cc(C=O)cc(C)c1Oc1cc(Nc2ccc(C#N)cn2)nc2ccncc12 |  | 48 h | > 126 µM
[Cl][Pd-2]([Cl])([N+](=Cc1ccc[nH]1)Cc1ccco1)[N+](=Cc1ccc[nH]1)Cc1ccco1 | cell growth or viability, MTT | 24 h | > 100 µg/mL
COc1ccc(OC)c(C(c2c[nH]c3ccccc23)c2c[nH]c3ccccc23)c1 | cell growth or viability, MTT | 24 h | 6.23 µM
Nc1nc(-c2ccc(NC(=O)c3cc(Cl)cc(Cl)c3)cc2)c[nH]1 | cell growth or viability, XTT | 24 h | 62.8 µM
COc1cc2c(=O)c(-c3ccc4c(c3)OCO4)coc2c2c1OC(C)(C)C=C2 | cell growth or viability, MTT | 72 h | 17.9 µM
N#Cc1c(F)c(F)c2nc(SCc3ccc4ccccc4c3)nc(N)c2c1F | cell growth or viability, MTT | 96 h | 6.41 µM
Clc1cc2nc(-c3cc4cc5c(cc4nc3Cl)OCO5)[nH]c2cc1Cl | cell growth or viability, MTT | 48 h | > 100 µM
CC(=O)N[C@@H]1[C@@H](OC(C)=O)[C@H](OC(C)=O)[C@@H](COC(C)=O)O[C@H]1n1nc(-c2cc3ccccc3[nH]2)n(-c2ccccc2)c1=S | cell growth or viability, MTT |  | 6.68 µM
CC(C)(C)c1cc2c(O)c(c1)Cc1cc(C(C)(C)C)cc(c1OCC(=O)Nc1cncc3ccccc13)Cc1cc(C(C)(C)C)cc(c1O)Cc1cc(C(C)(C)C)cc(c1OCC(=O)Nc1cncc3ccccc13)COC2 | cell growth or viability, MTT | 72 h | 2.3 µM

Some of these lines once more:
Compound | assay | conditions | IC50
O=C(/C=C/c1ccc2c(c1)OCO2)/C=C/c1cn(-c2ccccc2)nc1C(=O)O | cell growth | 72 h | > 25 µM
C=C(CO)[C@@H]1CC[C@]2(C)CC[C@]3(C)[C@H](CC[C@@H]4[C@@]5(C)CCC(=O)C(C)(C)C5CC[C@]43C)C12 (stereo partly drawn) | cell growth or viability, SRB |  | 10.7 µM
CN(C)C(=NN=C(c1ccccc1)c1ccccn1)[S][Ga]([Cl])[Cl] | cell growth or viability, MTT | 48 h | 0.34 µM
C=CCc1cc(OC)c(OC(C)=O)c(OC)c1 | MTT | 24 h | > 50 µM
COc1cc([C@@H]2OC[C@@H]3[C@H]2CO[C@H]3c2cc(OC)c(O)c(OC)c2)cc(OC)c1O | cell growth or viability, CCK-8 | 24 h | > 50 µM
CSC(=S)N/N=C(\C)c1ccc(S(=O)(=O)N2CCC(C)CC2)cc1 | cell growth or viability, MTT |  | 4.82 µM
Cc1cccc2c1NC(=O)C21C2=C(COC2=O)NC2=C1C(=O)c1ccccc1C2=O (stereo not drawn) | cell growth or viability, MTT | 72 h | 6.8 µM
COc1ccc(C(=O)Cn2cc([C@]3(O)CC[C@H]4[C@@H]5CCc6cc(O)ccc6[C@H]5CC[C@@]43C)nn2)cc1 | cell growth or viability, resazurin | 72 h | 16.4 µM
Oc1ccc2c(c1)[O][Pt-2]1([Cl])[N+](=C2)CC[NH+]1c1ccccc1 (stereo not drawn) | cell viability, MTT | 48 h | 77.2 ± 6.43 µM
